Results from different studies.
Parts stem from different laboratories: compare values within a part only. Changes are numbered by the printed parent chain.
Sequence of UniProt Q15349 (whole entry, looked up): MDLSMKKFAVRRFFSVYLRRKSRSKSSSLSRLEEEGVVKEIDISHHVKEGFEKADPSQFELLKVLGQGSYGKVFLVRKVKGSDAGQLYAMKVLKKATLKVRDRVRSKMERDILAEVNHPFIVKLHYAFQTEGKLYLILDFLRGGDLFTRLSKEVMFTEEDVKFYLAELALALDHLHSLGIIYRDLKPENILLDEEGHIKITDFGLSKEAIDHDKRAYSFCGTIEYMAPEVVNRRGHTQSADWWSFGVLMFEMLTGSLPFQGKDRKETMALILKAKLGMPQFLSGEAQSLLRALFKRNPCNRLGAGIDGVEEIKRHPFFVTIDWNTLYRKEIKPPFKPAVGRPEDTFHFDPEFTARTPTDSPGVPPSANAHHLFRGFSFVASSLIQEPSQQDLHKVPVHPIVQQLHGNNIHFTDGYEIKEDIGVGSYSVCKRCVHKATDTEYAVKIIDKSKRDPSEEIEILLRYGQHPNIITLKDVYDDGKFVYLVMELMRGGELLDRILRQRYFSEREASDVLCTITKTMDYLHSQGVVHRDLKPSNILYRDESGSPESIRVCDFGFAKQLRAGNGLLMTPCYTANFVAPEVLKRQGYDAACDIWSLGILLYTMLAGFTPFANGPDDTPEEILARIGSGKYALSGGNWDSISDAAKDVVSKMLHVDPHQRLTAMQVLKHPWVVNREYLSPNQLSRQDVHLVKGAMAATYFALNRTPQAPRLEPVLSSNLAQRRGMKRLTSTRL
Sequence of UniProt Q8WTQ7 (whole entry, looked up): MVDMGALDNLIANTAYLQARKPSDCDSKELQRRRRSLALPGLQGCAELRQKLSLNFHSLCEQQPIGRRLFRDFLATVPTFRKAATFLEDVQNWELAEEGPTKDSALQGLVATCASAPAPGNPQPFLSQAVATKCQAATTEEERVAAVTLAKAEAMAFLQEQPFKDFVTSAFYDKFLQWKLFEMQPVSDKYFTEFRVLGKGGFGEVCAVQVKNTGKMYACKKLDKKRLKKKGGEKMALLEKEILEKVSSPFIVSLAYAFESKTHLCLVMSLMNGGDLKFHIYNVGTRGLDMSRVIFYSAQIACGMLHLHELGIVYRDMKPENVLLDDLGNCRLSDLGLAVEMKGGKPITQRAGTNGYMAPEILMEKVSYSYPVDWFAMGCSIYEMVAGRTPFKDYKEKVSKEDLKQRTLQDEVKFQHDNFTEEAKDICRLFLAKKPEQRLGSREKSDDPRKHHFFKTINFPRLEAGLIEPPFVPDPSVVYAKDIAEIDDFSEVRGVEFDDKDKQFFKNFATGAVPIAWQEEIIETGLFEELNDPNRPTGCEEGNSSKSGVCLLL
Sequence of UniProt Q00532 (whole entry, looked up): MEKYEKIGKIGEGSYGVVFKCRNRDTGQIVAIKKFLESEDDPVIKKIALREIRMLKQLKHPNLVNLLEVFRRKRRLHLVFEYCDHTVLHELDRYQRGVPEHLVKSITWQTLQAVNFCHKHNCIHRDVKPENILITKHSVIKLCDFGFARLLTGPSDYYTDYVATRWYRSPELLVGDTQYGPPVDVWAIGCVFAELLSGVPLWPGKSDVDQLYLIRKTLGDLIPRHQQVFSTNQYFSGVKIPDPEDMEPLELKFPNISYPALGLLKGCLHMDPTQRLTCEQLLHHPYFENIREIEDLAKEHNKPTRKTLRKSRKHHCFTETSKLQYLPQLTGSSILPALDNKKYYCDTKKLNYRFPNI
Sequence of UniProt P06239 (whole entry, looked up): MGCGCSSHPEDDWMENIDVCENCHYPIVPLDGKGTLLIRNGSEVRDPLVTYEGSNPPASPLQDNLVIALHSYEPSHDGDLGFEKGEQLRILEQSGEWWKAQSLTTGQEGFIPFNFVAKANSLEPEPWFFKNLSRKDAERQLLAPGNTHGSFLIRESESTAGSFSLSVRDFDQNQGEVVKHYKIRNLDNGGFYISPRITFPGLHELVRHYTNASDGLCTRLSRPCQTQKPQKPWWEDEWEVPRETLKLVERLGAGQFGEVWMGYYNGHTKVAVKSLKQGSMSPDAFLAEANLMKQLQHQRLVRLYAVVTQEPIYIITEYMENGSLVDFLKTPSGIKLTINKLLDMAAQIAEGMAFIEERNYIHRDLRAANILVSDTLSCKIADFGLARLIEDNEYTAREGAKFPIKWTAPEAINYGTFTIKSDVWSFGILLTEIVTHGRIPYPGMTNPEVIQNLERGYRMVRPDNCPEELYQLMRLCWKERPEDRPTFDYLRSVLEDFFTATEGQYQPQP
Sequence of UniProt Q9UL54 (whole entry, looked up): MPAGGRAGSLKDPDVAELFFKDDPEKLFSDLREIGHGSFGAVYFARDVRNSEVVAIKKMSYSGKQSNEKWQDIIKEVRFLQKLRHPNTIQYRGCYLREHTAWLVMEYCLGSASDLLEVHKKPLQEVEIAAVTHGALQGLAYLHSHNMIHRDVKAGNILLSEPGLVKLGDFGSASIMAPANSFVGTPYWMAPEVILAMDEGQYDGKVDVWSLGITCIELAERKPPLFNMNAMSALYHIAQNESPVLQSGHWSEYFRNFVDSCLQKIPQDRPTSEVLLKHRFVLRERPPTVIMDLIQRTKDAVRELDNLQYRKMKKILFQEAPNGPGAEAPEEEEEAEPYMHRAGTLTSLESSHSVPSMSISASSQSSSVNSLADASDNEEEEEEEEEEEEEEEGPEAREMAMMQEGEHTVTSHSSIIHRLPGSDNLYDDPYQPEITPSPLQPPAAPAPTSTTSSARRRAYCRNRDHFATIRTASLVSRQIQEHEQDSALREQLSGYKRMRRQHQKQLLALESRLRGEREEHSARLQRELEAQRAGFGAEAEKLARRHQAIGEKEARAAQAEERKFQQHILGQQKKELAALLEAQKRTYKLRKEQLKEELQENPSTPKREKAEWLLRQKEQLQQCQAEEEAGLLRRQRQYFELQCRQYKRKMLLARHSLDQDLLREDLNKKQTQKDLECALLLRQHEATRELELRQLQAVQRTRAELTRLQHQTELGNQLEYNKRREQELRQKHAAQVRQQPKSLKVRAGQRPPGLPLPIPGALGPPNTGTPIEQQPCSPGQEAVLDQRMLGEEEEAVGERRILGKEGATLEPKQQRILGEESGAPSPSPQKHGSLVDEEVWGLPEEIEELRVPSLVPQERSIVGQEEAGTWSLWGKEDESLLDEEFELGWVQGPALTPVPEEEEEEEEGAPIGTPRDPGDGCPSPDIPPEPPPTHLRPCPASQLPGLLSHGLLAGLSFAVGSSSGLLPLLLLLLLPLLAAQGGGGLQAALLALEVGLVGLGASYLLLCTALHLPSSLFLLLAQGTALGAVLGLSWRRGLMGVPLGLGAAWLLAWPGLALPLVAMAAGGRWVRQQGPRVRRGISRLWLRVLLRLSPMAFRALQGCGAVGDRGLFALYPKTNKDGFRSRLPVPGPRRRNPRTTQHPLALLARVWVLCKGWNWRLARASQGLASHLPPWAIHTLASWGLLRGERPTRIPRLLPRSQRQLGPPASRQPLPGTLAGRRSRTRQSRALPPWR
Sequence of UniProt P42685 (whole entry, looked up): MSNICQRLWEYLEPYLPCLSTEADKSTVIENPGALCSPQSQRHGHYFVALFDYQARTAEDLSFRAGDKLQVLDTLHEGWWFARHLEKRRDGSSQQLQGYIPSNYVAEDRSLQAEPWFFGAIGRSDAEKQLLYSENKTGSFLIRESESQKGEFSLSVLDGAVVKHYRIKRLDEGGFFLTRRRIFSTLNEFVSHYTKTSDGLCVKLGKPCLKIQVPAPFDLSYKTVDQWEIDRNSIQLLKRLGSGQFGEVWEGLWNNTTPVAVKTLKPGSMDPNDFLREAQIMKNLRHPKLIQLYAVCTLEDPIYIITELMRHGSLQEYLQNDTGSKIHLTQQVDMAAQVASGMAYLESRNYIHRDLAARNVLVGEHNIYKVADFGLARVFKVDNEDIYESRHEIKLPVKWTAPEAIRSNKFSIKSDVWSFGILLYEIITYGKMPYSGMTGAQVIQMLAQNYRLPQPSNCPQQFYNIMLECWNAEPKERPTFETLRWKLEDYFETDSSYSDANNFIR
Sequence of UniProt P49841 (whole entry, looked up): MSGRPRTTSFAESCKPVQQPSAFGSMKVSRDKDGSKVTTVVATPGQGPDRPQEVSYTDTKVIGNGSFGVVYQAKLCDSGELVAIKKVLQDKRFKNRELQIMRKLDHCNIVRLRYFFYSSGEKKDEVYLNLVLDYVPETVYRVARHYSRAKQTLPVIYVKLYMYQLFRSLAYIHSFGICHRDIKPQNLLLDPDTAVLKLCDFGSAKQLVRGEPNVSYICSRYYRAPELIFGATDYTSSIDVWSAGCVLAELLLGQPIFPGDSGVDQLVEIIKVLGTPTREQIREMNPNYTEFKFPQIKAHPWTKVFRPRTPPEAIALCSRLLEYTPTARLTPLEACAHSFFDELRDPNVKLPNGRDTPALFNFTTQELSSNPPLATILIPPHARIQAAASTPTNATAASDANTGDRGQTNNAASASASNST
Sequence of UniProt Q9Y6M4 (whole entry, looked up): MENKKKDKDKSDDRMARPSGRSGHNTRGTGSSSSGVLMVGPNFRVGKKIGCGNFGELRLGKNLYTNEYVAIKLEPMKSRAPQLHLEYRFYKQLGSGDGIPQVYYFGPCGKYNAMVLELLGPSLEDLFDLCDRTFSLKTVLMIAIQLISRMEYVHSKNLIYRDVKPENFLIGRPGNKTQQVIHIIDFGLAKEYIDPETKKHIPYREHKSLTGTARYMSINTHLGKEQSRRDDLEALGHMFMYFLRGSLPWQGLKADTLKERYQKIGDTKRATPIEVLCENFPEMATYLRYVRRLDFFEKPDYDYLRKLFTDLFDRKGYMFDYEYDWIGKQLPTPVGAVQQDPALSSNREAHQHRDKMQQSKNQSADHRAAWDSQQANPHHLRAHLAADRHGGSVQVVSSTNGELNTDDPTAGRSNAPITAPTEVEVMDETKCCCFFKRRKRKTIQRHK

Set 1 — SMILES: c1ccc(-c2n[nH]c3c2oc2ccccc23)cc1; effect on: enzyme activity; mode: inhibitor; tested at: 0.5 µM; relative to: control; quantity: remaining activity
Casein kinase I isoform gamma-3 (CSNK1G3, Homo sapiens, UniProt Q9Y6M4): 88.5%
Serine/threonine-protein kinase TBK1 (TBK1, Homo sapiens, UniProt Q9UHD2): 105%
Fibroblast growth factor receptor 1 (FGFR1, Homo sapiens, UniProt P11362): 85.9%
Rhodopsin kinase GRK7 (GRK7, Homo sapiens, UniProt Q8WTQ7): 102%
Tyrosine-protein kinase FRK (FRK, Homo sapiens, UniProt P42685): 89.9%
Glycogen synthase kinase-3 beta (GSK3B, Homo sapiens, UniProt P49841): 105%
Serine/threonine-protein kinase Nek1 (NEK1, Homo sapiens, UniProt Q96PY6): 95.2%
MAP kinase-activated protein kinase 2 (MAPKAPK2, Homo sapiens, UniProt P49137): 99.1%
Tyrosine-protein kinase Lck (LCK, Homo sapiens, UniProt P06239): 99.3%
Serine/threonine-protein kinase TAO2 (TAOK2, Homo sapiens, UniProt Q9UL54): 80.7%
Macrophage-stimulating protein receptor (MST1R, Homo sapiens, UniProt Q04912): 87.3%
Mitogen-activated protein kinase kinase kinase 5 (MAP3K5, Homo sapiens, UniProt Q99683): 97.4%
Ribosomal protein S6 kinase alpha-2 (RPS6KA2, Homo sapiens, UniProt Q15349): 77.5%
Tyrosine-protein kinase JAK3 (JAK3, Homo sapiens, UniProt P52333): 132%

Set 2 — effect on: cell-free assay; method: competition with immobilised ligand; tested at: 1 µM; quantity: remaining binding
SMILES: O=C(Nc1cnc(Oc2ccc(F)cc2)nc1)N1CCc2ncccc2[C@@H]1c1ccc(F)cc1
Serine/threonine-protein kinase NLK (NLK, Homo sapiens, UniProt Q9UBE8): 73%
Cyclin-dependent kinase-like 1 (CDKL1, Homo sapiens, UniProt Q00532): 100%
Serine/threonine-protein kinase TAO1 (TAOK1, Homo sapiens, UniProt Q7L7X3): 100%
Hepatocyte growth factor receptor (MET, Homo sapiens, UniProt P08581): 100%
TRAF2 and NCK-interacting protein kinase (TNIK, Homo sapiens, UniProt Q9UKE5): 100%
Dual specificity mitogen-activated protein kinase kinase 7 (MAP2K7, Homo sapiens, UniProt O14733): 95%

Set 3 — method: protein-binding microarray; molecule type: double-stranded DNA, one strand shown; matrix: in vitro; tested at: 2200 nM top; notes: 60-bp whole probe; with: salmon DNA 0.4 mg/ml; relative to: random background probes; direction: higher = stronger binding; quantity: fitted relative affinity
Target: Interferon regulatory factor 7, full length, phosphomimetic (IRF7, Homo sapiens, UniProt Q92985, residues 1-503, S471D/S472D/S475D/S476D/S477D/S483D/S484D/S487D)
All sequences stand within: GCCTAGCAC … GTGCTAGGTCTTGATTCGCTTGACGCTGCTG
Construct (chain): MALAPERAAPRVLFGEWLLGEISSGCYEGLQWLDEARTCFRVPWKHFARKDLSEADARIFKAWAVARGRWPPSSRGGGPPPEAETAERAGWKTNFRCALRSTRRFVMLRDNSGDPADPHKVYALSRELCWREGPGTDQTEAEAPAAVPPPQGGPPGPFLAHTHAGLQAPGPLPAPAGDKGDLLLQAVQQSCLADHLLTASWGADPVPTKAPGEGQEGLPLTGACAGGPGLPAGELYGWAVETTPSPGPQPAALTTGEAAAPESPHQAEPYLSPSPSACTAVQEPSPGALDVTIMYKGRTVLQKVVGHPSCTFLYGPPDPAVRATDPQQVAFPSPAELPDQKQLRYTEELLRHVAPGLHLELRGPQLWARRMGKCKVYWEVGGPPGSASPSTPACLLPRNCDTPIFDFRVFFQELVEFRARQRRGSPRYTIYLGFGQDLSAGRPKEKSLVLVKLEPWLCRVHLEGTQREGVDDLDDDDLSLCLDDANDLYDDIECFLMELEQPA
TCAGTTTTGTGTGTGTGACT: 2.01 z-score
TTAGATTTCAGGCTCGATTA: -0.0275 z-score
TTCTATATTTGCTTCAGGTT: 1.29 z-score
GACGGTTTCCTTCTCCTGTC: 3.59 z-score
TCACCATTGGTCTTCACACT: 1.33 z-score
TTAGGGTTCCTTCTCCTTTA: 0.867 z-score
TTCATTTTCTTTAACTCATT: 1.8 z-score
TTTGGTCTCCTTTTCCTTTA: 2.81 z-score

Set 4 — target: CCND3, cyclin fold, Cln2 fusion (human); method: yeast growth competition, sequencing; matrix: yeast; notes: weak parent motif; relative to: not given; direction: higher = stronger binding; quantity: normalised enrichment score
Parent: E2F3 docking peptide (human); PPAKRRLELGESG; partner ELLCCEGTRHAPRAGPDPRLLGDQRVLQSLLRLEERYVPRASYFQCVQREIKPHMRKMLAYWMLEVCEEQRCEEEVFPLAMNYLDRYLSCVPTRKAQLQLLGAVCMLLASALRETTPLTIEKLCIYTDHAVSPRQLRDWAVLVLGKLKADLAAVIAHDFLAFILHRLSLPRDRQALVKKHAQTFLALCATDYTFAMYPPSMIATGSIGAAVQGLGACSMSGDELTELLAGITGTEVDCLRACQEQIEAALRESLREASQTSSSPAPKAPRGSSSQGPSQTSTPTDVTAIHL
PPAKKRLELGESG [R5K]: -0.432
APAKRRLELGESG [P1A]: 0.132
PPAKRRLALGESG [E8A]: 0.157
PPAKRRLEAGESG [L9A]: 0.196
PPAKRRLEFGESG [L9F]: -0.119
PPAKRRLELGESA [G13A]: 0.0958
PPAKRALELGESG [R6A]: 0.169
PPAKRRAELGESG [L7A]: 0.169

Some of these lines once more (set 4):
APAKRRLELGESG [P1A]: 0.132
PPAKRRLALGESG [E8A]: 0.157
PPAKRRLEAGESG [L9A]: 0.196
PPAKRRLEFGESG [L9F]: -0.119
PPAKRRLELGESA [G13A]: 0.0958
